Assay results of several laboratories.
Numbered parts are unrelated; each lists some results of a single study. ± gives the spread as reported.

Sample 1 — cell line: TZM-bl
Structure (SMILES): CCCOC(=O)N1c2cc(CNC)ccc2[C@H](NC(=O)C(=O)Nc2ccc(Cl)c(F)c2)[C@H]1CNC(=N)N
Human immunodeficiency virus 1; viral infection, Env pseudovirus; CAP210.2.00.E8 clade C — IC50: 556 nM.
The IC50 was 203 nM (Human immunodeficiency virus 1; viral infection, Env pseudovirus; 231965.c01 clade D).
Human immunodeficiency virus 1; viral infection, Env pseudovirus; 6244_13_B5_4576 clade B T/F — IC50: 552 nM.
Human immunodeficiency virus 1; viral infection, Env pseudovirus; 3301.v1.c24 clade AC — IC50: 907 nM.
For Human immunodeficiency virus 1; viral infection, Env pseudovirus; 6405.v4.c34 clade D: IC50 read 4280 nM.
For env (Human immunodeficiency virus 1, UniProt Q5G5U9); pseudovirus infection, luciferase reporter; 48 h: IC50 read 910 nM.
It gave 160 nM for IC50 (Human immunodeficiency virus 1; viral infection, Env pseudovirus; HIV-0013095-2.11 clade C).
The IC50 was 986 nM (env (Human immunodeficiency virus 1, UniProt D5FN35); pseudovirus infection, luciferase reporter; 48 h).

Sample 2 — target: HIV-1 TAR RNA; concentration: concentration not given; temperature: 25 °C
`CC(=O)NCCN(CC(=O)NCCN(CC(=O)NCCN(CC(=O)NCCC(N)=O)C(=O)C[C@@H](N)CCCNC(=N)N)C(=O)C[C@@H](N)CCCCN)C(=O)C[C@@H](N)Cc1ccccc1`: “binding enthalpy ΔH°” -11 ± 0.215 kcal/mol.
`CC(=O)NCCN(CC(=O)NCCN(CC(=O)NCCN(CC(=O)NCCC(N)=O)C(=O)C[C@@H](N)CCCNC(=N)N)C(=O)C[C@@H](N)Cc1ccccc1)C(=O)C[C@@H](N)Cc1ccccc1`: “binding enthalpy ΔH°” -7 ± 0.263 kcal/mol.
`CC(=O)NCCN(CCC(=O)NCCN(CCC(=O)NCCN(CCC(=O)NCCC(N)=O)C(=O)[C@@H](N)Cc1ccccc1)C(=O)[C@@H](N)CCCNC(=N)N)C(=O)[C@@H](N)Cc1ccccc1`: “binding enthalpy ΔH°” -8.77 ± 0.693 kcal/mol.
For `CC(=O)NCCN(CCC(=O)NCCN(CCC(=O)NCCN(CCC(=O)NCCC(N)=O)C(=O)[C@@H](N)CCCCN)C(=O)[C@@H](N)Cc1ccccc1)C(=O)[C@@H](N)Cc1ccccc1`, “binding enthalpy ΔH°” read -12.1 ± 0.287 kcal/mol.

Other studies, line by line
ALB: Albumin (ALB, Bos taurus, UniProt P02769)
Chain of UniProt P02769 (whole entry, looked up): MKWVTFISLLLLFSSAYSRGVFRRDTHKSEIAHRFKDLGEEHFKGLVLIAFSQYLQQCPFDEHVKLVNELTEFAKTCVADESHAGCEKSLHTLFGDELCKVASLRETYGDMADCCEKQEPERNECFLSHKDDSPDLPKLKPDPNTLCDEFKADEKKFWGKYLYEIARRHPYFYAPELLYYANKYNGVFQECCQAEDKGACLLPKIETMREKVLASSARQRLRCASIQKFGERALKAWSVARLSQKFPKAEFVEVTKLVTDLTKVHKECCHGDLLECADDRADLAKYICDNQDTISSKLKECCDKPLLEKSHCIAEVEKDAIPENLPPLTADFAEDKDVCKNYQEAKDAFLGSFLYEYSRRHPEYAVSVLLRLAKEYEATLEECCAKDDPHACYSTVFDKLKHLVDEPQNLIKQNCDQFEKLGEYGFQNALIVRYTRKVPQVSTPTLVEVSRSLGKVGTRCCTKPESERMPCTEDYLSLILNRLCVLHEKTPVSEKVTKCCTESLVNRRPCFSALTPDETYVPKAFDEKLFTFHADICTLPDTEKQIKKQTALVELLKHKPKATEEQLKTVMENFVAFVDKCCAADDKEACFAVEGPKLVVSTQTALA
Under “fluorescence quantum yield”, `CN1CCN(c2ccc3[nH]c(-c4ccc5[nH]c(-c6ccc(OCCCCNC(=O)c7ccc8c(c7)C7(OC8=O)c8ccc(N(C)C)cc8[Si](C)(C)c8cc(N(C)C)ccc87)cc6)nc5c4)nc3c2)CC1` is recorded as 0.047 ± 0.002 (ALB; PBS; 1 µM, 1 h, together with: 25 mg/mL albumin).
With `C[C@H](Nc1ncnc(N)c1C#N)c1c(-c2ccccc2)[nH]c2c(Cl)cccc2c1=O` the IC50 was 3210 nM (Toledo; cell proliferation, CellTiter-Glo).
`CN1CCN(c2ccc3[nH]c(-c4ccc5[nH]c(-c6ccc(OCCCCNC(=O)c7cccc8c7C(=O)OC87c8ccc(N(C)C)cc8C(C)(C)c8cc(N(C)C)ccc87)cc6)nc5c4)nc3c2)CC1`: “fluorescence quantum yield” 0.21 ± 0.006 (ALB; PBS; 1 µM, 1 h, together with: 25 mg/mL albumin).
For `F[P-](F)(F)(F)(F)F.OC(Cn1cncn1)(Cn1cc(-[c-]2cccc2)nn1)c1ccc(F)cc1F.[Co+3].c1cc[cH-]c1` (racemic), the IC50 was 195000 nM (Vero; cell growth or viability, MTT; 24 h).
Under “fluorescence quantum yield”, `CN1CCN(c2ccc3[nH]c(-c4ccc5[nH]c(-c6ccc(OCCCCNC(=O)c7ccc8c(c7)C(=O)OC87c8ccc(N(C)C)cc8C(C)(C)c8cc(N(C)C)ccc87)cc6)nc5c4)nc3c2)CC1` is recorded as 0.106 ± 0.003 (ALB; PBS; 1 µM, 1 h, together with: 25 mg/mL albumin).

Repeated from above (sample 1):
The IC50 was 203 nM (Human immunodeficiency virus 1; viral infection, Env pseudovirus; 231965.c01 clade D).
